Published values from different studies.
Each numbered part is a random draw from the data of one study; scales do not carry over between parts. “And” joins repeats or separate records; there may be more than shown.

Sample 1 — observed: binding; technique: radioligand binding; concentration: 10 µM
Target: Beta-2 adrenergic receptor (ADRB2, Homo sapiens, UniProt P07550)
UniProt P07550, sequence (whole entry, looked up): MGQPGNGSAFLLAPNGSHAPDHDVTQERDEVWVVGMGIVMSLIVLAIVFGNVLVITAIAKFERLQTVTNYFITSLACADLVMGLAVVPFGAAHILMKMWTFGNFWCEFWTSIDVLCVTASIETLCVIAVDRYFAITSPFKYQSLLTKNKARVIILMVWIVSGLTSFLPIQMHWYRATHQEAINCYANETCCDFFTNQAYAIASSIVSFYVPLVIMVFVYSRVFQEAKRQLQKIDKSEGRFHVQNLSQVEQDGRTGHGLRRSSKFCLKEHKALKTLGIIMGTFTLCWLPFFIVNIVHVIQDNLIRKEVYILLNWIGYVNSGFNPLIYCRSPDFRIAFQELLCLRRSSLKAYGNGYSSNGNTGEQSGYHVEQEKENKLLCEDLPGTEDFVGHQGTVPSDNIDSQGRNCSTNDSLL
`CC(C)(O)c1cncc(-c2nc3ccc(F)cc3n2C2CC2)c1` gave an inhibition of 2.65%.
`O=C1c2ccc(Nc3ccc(F)cc3F)cc2CCc2ccc(OC[C@H](O)CO)cc21` gave an inhibition of 2.93%.
With `COCCc1ccc(-c2c(C)nc3c(N4CCOCC4)ccnn23)cn1` the inhibition was -1.12%.
`CN1C(=O)[C@@H](N2CCc3cn(Cc4ccccc4)nc3C2=O)COc2ccccc21` gave an inhibition of 9.59%.
`CC1=C(C#N)C(c2ccc3c(c2)c(NC(=O)c2ccccc2C)nn3C)C(C#N)=C(C)N1` gave an inhibition of -7.25%.
With `CN(C)C(=O)Cn1cc(-c2nc([C@@](C)(c3ccc(-c4cnc(N)nc4)cc3)C3CC3)no2)cn1` the inhibition was 0.497%.
`Cc1c[nH]c2nccc(Oc3c(F)cc(Nc4cc(Cl)nc(N)n4)cc3F)c12` gave an inhibition of -7.12%.
For `CC(C)CC(=O)N1CCc2nc(-c3ccc(Br)cc3)nc(N(C)Cc3ccccc3)c2C1`, the inhibition was 5.63%.
With `COCc1nc2cnc3cc(-c4c(C)noc4C)c(OC[C@H]4CCNC4)cc3c2n1[C@H](C)c1ccccc1` the inhibition was 18.4%.
For `Cc1nc(Cc2cccc(C(F)(F)F)c2)sc1-c1ccc(C(N)=O)nc1`, the inhibition was 2.07%.
With `CC1=C(C#N)[C@@H](c2ccc3[nH]nc(C)c3c2)C(C#N)=C(c2ccc(Cl)cc2)N1` the inhibition was -0.813%.
With `O=C(NC[C@@H]1[C@H]2CN(C(=O)OCc3cc(C(F)(F)F)cc(C(F)(F)F)c3)C[C@@H]12)c1ccc2[nH]nnc2c1` the inhibition was -10.7%.
With `CCOC(=O)c1cc2cc(-c3cc(C(=O)NCc4ccc(C(=O)O)cc4)nn3C)ccc2[nH]1` the inhibition was -7.76%.
The inhibition of `COc1nc2ccc([C@@](O)(c3ccccc3)C3CCN(C(C)=O)CC3)cc2c(Cl)c1Cc1ccc(-n2cccn2)cc1` is reported as 15.6%.
For `O[C@]1(C(F)(F)F)CCCC[C@H]1Nc1ccc(F)cc1`, the inhibition was 7.94%.
`CN([C@@H]1CCc2c(CC(=O)O)c3cc(S(C)(=O)=O)ccc3n2C1)S(=O)(=O)c1ccc(F)cc1` gave an inhibition of 0.0525%.
`COc1cc(-c2cn(C3CCc4ccccc4N(CC(F)(F)F)C3=O)nn2)ccc1-n1ccc(C)n1` (stereo not shown) has an inhibition of -13.7%.
`O=C(Nc1ccc(-n2nc(-c3cccnc3)cc2C(F)(F)F)cn1)c1ccc(-c2ccccc2)c(F)c1` gave an inhibition of 5.14%.
The inhibition of `O=C([C@H]1C[C@H](O)CN1c1ccc(Cl)cc1)N1CC2COCC(C1)N2Cc1ccc(Cl)cc1` is reported as -7.55%.

Sample 2 — observed: enzyme activity; action: inhibitor; concentration: 0.5 µM; relative to: control
Target: Ribosomal protein S6 kinase alpha-6 (RPS6KA6, Homo sapiens, UniProt Q9UK32)
UniProt Q9UK32, sequence (whole entry, looked up): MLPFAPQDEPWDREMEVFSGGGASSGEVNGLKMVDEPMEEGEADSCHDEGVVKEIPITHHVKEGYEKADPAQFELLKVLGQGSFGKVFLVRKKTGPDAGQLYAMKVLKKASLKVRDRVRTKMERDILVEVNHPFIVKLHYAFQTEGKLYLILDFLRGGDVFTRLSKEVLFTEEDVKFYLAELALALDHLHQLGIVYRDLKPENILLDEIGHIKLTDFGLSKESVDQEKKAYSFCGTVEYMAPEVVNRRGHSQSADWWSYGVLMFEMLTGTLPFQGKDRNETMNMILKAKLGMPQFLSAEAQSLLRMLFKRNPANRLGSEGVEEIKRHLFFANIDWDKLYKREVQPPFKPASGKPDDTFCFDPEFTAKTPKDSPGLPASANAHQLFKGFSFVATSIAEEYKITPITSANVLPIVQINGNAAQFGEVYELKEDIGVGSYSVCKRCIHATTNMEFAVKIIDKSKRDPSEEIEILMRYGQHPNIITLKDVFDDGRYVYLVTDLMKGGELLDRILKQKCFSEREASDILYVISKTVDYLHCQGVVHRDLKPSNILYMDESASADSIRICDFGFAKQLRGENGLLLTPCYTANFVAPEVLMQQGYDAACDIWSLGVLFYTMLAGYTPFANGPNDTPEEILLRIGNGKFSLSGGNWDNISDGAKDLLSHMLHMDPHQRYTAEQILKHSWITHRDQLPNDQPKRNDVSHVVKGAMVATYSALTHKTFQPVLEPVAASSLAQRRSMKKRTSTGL
With `COc1cc2c(cc1OC)-c1[nH]nc(Nc3cccc(F)c3)c1C2` the remaining activity was 93.6%.
The remaining activity of `Nc1cccc(-c2cc3c(Oc4cccc(O)c4)ncnc3[nH]2)c1` is reported as 95.4%.
With `COc1cc2ncnc(Nc3cccc(Cl)c3)c2cc1OC` the remaining activity was 90.5%.
The remaining activity of `CCN(CC)C(=O)c1ccc(Nc2nc(OCC3CCCCC3)c3[nH]cnc3n2)cc1` is reported as 46.2%.
The remaining activity of `Cc1cc2ncc(-c3ccccc3)nc2cc1C` is reported as 98.2%.
The remaining activity of `c1ccc(-c2cnc(Nc3ccc(OCCN4CCCC4)cc3)s2)cc1` is reported as 94.5%.
The remaining activity of `CCN(CC)CCNC(=O)c1c(C)[nH]c(/C=C2\C(=O)Nc3ccc(Cl)cc32)c1C` is reported as 10.5%.
`COc1cc2ncnc(Nc3ccc(O)c(Br)c3)c2cc1OC` gave a remaining activity of 57.8%.
`c1ccc(-c2[nH]ncc2-c2ccnc3ccccc23)nc1` gave a remaining activity of 112%.
The remaining activity of `O=C1c2ccccc2-c2n[nH]c3cccc1c23` is reported as 88.2%.
`CN(C)C[C@H]1CCn2c(c(C3=C(c4cn(C)c5ccccc45)C(=O)NC3=O)c3ccccc32)C1` gave a remaining activity of 2.94%.
`N#C/C(=C\c1ccc(O)c(O)c1)C(=O)NCc1ccccc1` gave a remaining activity of 108%.
The remaining activity of `Cc1cn(-c2cc(NC(=O)c3ccc(C)c(Nc4nccc(-c5cccnc5)n4)c3)cc(C(F)(F)F)c2)cn1` is reported as 99%.
With `CCOc1nc(NC(=O)Cc2cc(OC)ccc2OC)cc(N)c1C#N` the remaining activity was 94.3%.
`Cc1nc2cc3nc(-c4cccs4)cnc3cc2n1C` gave a remaining activity of 88.5%.
The remaining activity of `O=c1cc(-c2cccc3c2Sc2ccccc2S3)oc(N2CCOCC2)c1` is reported as 98.2%.
`CN([C@@H](Cc1ccc(OS(=O)(=O)c2cccc3cnccc23)cc1)C(=O)N1CCN(c2ccccc2)CC1)S(=O)(=O)c1cccc2cnccc12` has a remaining activity of 100%.
With `O=C1C(Cl)=C(N2C(=O)CCC2=O)C(=O)c2ccccc21` the remaining activity was 99.9%.
With `N#Cc1c(NC(=O)c2cccc3ccccc23)sc2c1CCCC2` the remaining activity was 101%.

Mixed results
For `CC[C@@H](C)c1nc2cc(Nc3ccnc4ccc(S(=O)(=O)C(C)C)cc34)ccc2s1.Cl`, the caspase-3 activity was 0.012 a.u. and 0.026 a.u. and 0.0085 a.u. and 0.011 a.u. (L929; caspase activity, Ac-DEVD-pNA absorbance; 50 µM, 2 h; higher = more activity).
Under “AUC(0-inf), geometric mean”, `COc1ccc(-c2c(Nc3ccccn3)[nH]c3c(C4=CCCCC4)c(-c4ccccc4)nn3c2=O)cc1` is recorded as 11900 ng·h/mL (cancer patients, plasma; oral, 50 mg, cycle 0 day -3, single dose).
